Results from different studies.
Protocols differ between the studies behind these lines. ± gives the spread as reported.

C#CCNC(=O)[C@@]1(C)C(=O)CC[C@]2(C)[C@H]3C(=O)C=C4[C@@H]5[C@@H](C)[C@H](C)CC[C@]5(C)CC[C@@]4(C)[C@]3(C)CC[C@@H]12
IC50 (HDF; cell growth or viability, MTT; 24 h): > 200000 nM

Cc1ccc([N+](=O)[O-])cc1S(=O)(=O)N(C)/N=C/c1cnc2ccc(Br)cn12
IC50 (SN12C; MTS; NCI60 panel): 468 nM

C=CC(=O)Nc1ccc(F)c(-c2ncnc3[nH]cc(C(=O)OCC)c23)c1
IC50 (mouse CD4 T-cell blasts; phosphoflow, refers to: STAT5 phosphorylation; 2 h pretreatment, with: IL-2 50 U/mL): 47.2 ± 4.5 nM

CC(C)c1ccc(N(C)c2ccc3c(c2)OCC[C@H]3CNc2cnccc2C(=O)O)cc1
IC50 (NCI-H1563; cell growth or viability, ATP luminescence; 7 days): ≥ 10000 nM

CN1CC[C@@H](COc2cnc(C#N)cc2-c2ccn3nc(NC(=O)C4CC4)cc3c2)C1
IC50 (human monocyte-derived macrophages; TNF release; 3 h, with: LPS): 940 nM

Cn1ncc(-c2ccc3c(=O)[nH]nc(CN)c3c2)c1-c1c(F)c(Cl)cc(OC2CC2)c1C#N
IC50 (NCI-H2122; cell viability, inhibitor, CellTiter-Glo; 120 h, baseline-subtracted): 3210 nM

C=CC(=O)N1CCC[C@@H](c2ccc(C(N)=O)c3[nH]ccc23)C1
IC50 (TMD8; cell growth or viability, ATP luminescence; 96 h): 434 nM

O=C1c2ccccc2-c2nc3nonc3nc21
IC50 (HEK293-A GFP-LC3B; LC3B puncta formation; 22 h, with: chloroquine, torin1): > 20000 nM

O=C(NCc1cc(F)cc(F)c1)[C@@]1(O)CCN(c2ccc3[nH]ccc3c2)C1=O
IC50 (HCC827; cell growth or viability): > 30000 nM

CC1(C)CC(=O)C2=C(C1)Oc1ccc3ccccc3c1C2c1c[nH]c2ccccc12 (stereo not drawn)
IC50 (3T3-L1 pre-adipocytes; cell viability, MTT; 72 h): > 100 µg/mL

CCOC(=O)/C=C1\S/C(=N\N=C\c2cccc3cc4ccccc4nc23)N(C)C1=O
IC50 (PATU; cell proliferation, MTT; 48 h): > 50000 nM

N#Cc1c(N)nc2c(c1-c1ccc[nH]1)Cc1cc(O)ccc1-2
IC50 (HH; cell growth or viability, ATP luminescence): 7530 nM

CNS(=O)(=O)Nc1nccc(Cc2c(C)c3ccc(Oc4ncccc4F)cc3oc2=O)c1F
IC50 (HT-3; cell viability; 7 days): > 1000 nM

N#Cc1c(N)nc2c(c1-c1ccc(F)cc1)Cc1cc(O)ccc1-2
IC50 (HH; cell growth or viability, ATP luminescence): 7900 nM

COc1ccc(C(=O)Oc2ccc(NC(=O)Cc3nn(C)c(=O)c4ccccc34)cc2)cc1
IC50 (HEK293-A GFP-LC3B; LC3B puncta formation; 22 h, with: chloroquine, torin1): > 20000 nM

COc1ccc2c(c1)OC1=C(C(=O)CC(C)(C)C1)C2C1=C(O)CC(C)(C)CC1=O (stereo not drawn)
IC50 (3T3-L1 pre-adipocytes; cell viability, MTT; 72 h): 100 to 1000 µg/mL

Nc1cc2cccnc2c2ncccc12.[Cl-].[Cl-].[Ru+2].c1cnc2c(c1)ccc1cccnc12.c1cnc2c(c1)ccc1cccnc12
IC50 (HFF-1; cell viability, MTT; 1 h preincubation, then 48 h, with: blue light): 41100 ± 1040 nM

COc1cccc(N2C(=O)CS/C2=N\N=C\c2cccc3cc4ccccc4nc23)c1
IC50 (PATU; cell proliferation, MTT; 48 h): > 50000 nM

CCOc1cncc(-c2ccc(NC(=O)C3(c4ccnc(NS(=O)(=O)C5CC5)n4)CCOCC3)nc2)n1
IC50 (HH; cell growth or viability, ATP luminescence; 72 h): 2 nM

C#CCOc1ccc(C(=O)c2ccc(NC(=O)C(=O)NCCc3ccc(OC)cc3)cc2)cc1
IC50 (NCI-H2122; cell growth or viability): 23 nM

CCn1nc(Cl)c2c1-c1cnc(N)c(c1)O[C@H](C)c1cc(F)ccc1-c1nn(C)cc1C2
IC50 (NCI-H3122 (EML4-ALK variant 1); cell viability): 2.25 nM

COc1cc2c(=O)oc3cc(OC(=O)c4ccc(Cl)cc4)ccc3c2c(OC)c1OC
IC50 (HEK293-A GFP-LC3B; LC3B puncta formation; 22 h, with: chloroquine, torin1): > 20000 nM

CCN(C(=O)c1cc(F)ccc1Oc1nncnc1N1CCC2(C1)CN([C@H](CCCN(C)CCOC)C(C)C)C2)C(C)C
IC50 (MV4-11 (KMT2A-AF4, FLT3-ITD); inhibitor, QuantiGene multiplex, refers to: MEIS1 mRNA): 38 ± 7 nM

C=CC(=O)N1CCCC(n2c(=O)c3ncccc3n(Cc3ccc(Oc4ccccc4)cc3)c2=O)C1 (stereo not drawn)
IC50 (H9; cell growth or viability, MTT; 72 h): 1000 nM

CC(C)(C)c1cnc(CSc2cnc(NC(=O)C3CCN(C(=O)CCCCCCN4Cc5cc6c(cc5C4)C(=O)N(C4CCC(=O)NC4=O)C6=O)CC3)s2)o1 (stereo not drawn)
IC50 (MES-SA; cell growth or viability, MTT): 200 nM

CCOC(=O)/C=C1\S/C(=N\N=C\c2cccc3cc4ccccc4nc23)N(CC(C)C)C1=O
IC50 (PATU; cell proliferation, MTT; 48 h): > 50000 nM

COc1ccc(CSC2C3=C(CCCC3=O)Oc3ccc(Br)cc32)cc1 (stereo not drawn)
IC50 (3T3-L1 pre-adipocytes; cell viability, MTT; 72 h): > 100 µg/mL

For quick reference, copied from above:
COc1cccc(N2C(=O)CS/C2=N\N=C\c2cccc3cc4ccccc4nc23)c1
IC50 (PATU; cell proliferation, MTT; 48 h): > 50000 nM

CCOc1cncc(-c2ccc(NC(=O)C3(c4ccnc(NS(=O)(=O)C5CC5)n4)CCOCC3)nc2)n1
IC50 (HH; cell growth or viability, ATP luminescence; 72 h): 2 nM

C#CCOc1ccc(C(=O)c2ccc(NC(=O)C(=O)NCCc3ccc(OC)cc3)cc2)cc1
IC50 (NCI-H2122; cell growth or viability): 23 nM

CCn1nc(Cl)c2c1-c1cnc(N)c(c1)O[C@H](C)c1cc(F)ccc1-c1nn(C)cc1C2
IC50 (NCI-H3122 (EML4-ALK variant 1); cell viability): 2.25 nM
